# Experimental data from different studies.
# Numbered parts are unrelated; each lists some results of a single study. Changes are numbered by the printed parent chain.

# Study 1 — technique: protein binding microarray; molecule type: double-stranded DNA, one strand shown; matrix: in vitro; concentration: not given; relative to: not given; reading: higher = stronger binding
# Target: Histone acetyltransferase KAT6A, winged helix 2, GST fusion (KAT6A, Homo sapiens, UniProt Q92794, residues 85-181)
# Notes: 8-mer, flanks averaged, mean of 2 arrays, mostly near background
# Residues (chain): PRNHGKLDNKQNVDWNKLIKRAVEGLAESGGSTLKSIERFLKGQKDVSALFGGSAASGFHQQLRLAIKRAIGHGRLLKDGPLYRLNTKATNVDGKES
Strand,E-score
AAAACGTA,-0.106
GATACGAA,0.0888
ATAACATA,-0.134
CCGCGGAA,0.17
AAGGCCGG,0.117
CATGTTGG,-0.161
TATTTAAA,0.00681
GGGAGTAA,0.0497
ACCGTATA,-0.242

# Study 2 — technique: RNA Bind-n-Seq; molecule type: RNA; matrix: in vitro; concentration: not given; notes: RNA with constant flanks, ends assumed; relative to: input RNA pool; reading: higher = stronger binding
# Target: RING finger protein unkempt homolog, zinc fingers 1-6, GST-SBP tag (UNK, Homo sapiens, UniProt Q9C0B0, residues 30-357)
# Sequence of UniProt Q9C0B0 (30-357, looked up): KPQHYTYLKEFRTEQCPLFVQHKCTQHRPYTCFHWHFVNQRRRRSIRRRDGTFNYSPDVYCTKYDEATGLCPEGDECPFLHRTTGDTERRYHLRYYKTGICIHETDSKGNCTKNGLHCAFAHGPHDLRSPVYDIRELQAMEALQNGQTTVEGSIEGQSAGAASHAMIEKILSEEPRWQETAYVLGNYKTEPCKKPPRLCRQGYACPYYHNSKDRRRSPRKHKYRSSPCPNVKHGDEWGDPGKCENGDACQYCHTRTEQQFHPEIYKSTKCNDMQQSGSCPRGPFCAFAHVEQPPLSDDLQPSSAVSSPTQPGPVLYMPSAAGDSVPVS
# Constant ends, left off below: GGGAGUUCUACAGUCCGACGAUC … CAACAGAGGAUUGAGCAUCA
Strand,bound/input enrichment [ratio]
AAGCUUGGAGAAGAACCAGGGGAUGAGGUUGAUGUUCCAAAGGAUGAGCUUAGUACCGAUUCCGGAAUGUUAUUUAUCGGUGGAACCAAACCUCCCUAGAGAGUACUGUGAAAGCUGGCA,0.252
GGACUGGUUAUGACAGAGGCACAUCUUCCCAGUCAGACUUUGGAACAGGGCCUUGAUGUUUCCGAAAUUAUGAGAAACAUUCAUAUAUUUGUGUCCCGAUACCUCUAUAAUCUCAACAAU,0.234
GAGCCCUAUGGCUUCCGUGCCUCAGUGUUAUUCGAUACAAUGCAACACCAUCUAGCCUUGAACCGAGAUUUGUCCACACCUGGCCUGGAGAAGGACAGUGGAGGGAAGACACCUGGUGAC,0.221
GGAGUUUUUUAACUGAUUUAGCCAGGUGGCAAUCAUGAGUGAAUGGAUGAAGAAAGGCCCCUCCGAAUGGCAAGAUUACAUUUACAAAGAGGUCCGAGUGACAGCCAGUGAGAAGAAUGA,0.369
UUCUUAUACCUGGAUUUGGAAUUGAGUAUUCUUGAAAUGCCUAUAUUUGAGGAAGAUAAAUCCGGAGUUUAGAGAGCCAUAGUAAUACACUGAACGUUUCUUGUUAAAACUGUAACCUUG,2.57

# Study 3 — target: CCNB2, cyclin fold, Cln2 fusion (human); technique: yeast growth competition, sequencing; matrix: yeast; notes: weak parent motif; relative to: not given; reading: higher = stronger binding
# Parent: SLBP docking peptide (human); ARYKRKLLINDFG; partner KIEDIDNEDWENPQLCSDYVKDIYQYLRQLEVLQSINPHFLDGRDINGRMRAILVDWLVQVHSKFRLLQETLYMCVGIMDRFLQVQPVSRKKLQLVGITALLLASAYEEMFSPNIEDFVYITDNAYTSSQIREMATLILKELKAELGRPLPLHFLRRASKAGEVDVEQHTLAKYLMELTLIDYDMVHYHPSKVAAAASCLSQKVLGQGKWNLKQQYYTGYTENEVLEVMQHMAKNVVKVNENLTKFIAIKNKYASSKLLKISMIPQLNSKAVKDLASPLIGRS
Change,normalised enrichment score
R2T,0.962
A1R,0.203
N10T,0.718
D11Q,0.204
Y3Q,0.614
D11A,0.597
K6E,0.415

# Further values, each from its own experiment
Molecule,target,assay,system,setting,how to read,endpoint,result
"PhoQ, residues 284 288 289 292 302 303 ALVSVA","PhoP, residues 12 14 15 18 19 STHWV (Escherichia coli, UniProt P23836)","Sort-seq, measured: YFP reporter",E. coli,"PhoQ-PhoP variant library, together with: 10 µM Mg2+","relative to: high Mg2+ state, higher = stronger signaling",fold induction,1.79

# Excerpt of the above (study 3):
Change,normalised enrichment score
Y3Q,0.614
D11A,0.597
